# Assay results from different studies.
# Protocols differ between the studies behind these lines. Numbers after ± are the reported error.
# AfsR 1-980: AfsR 1-980 (Streptomyces avermitilis)
# LysR family transcriptional regulator 1-307: LysR family transcriptional regulator 1-307 (Pseudomonas savastanoi pv. phaseolicola, UniProt Q48CZ9)
# T1: AfsR 1-980 (Streptomyces avermitilis); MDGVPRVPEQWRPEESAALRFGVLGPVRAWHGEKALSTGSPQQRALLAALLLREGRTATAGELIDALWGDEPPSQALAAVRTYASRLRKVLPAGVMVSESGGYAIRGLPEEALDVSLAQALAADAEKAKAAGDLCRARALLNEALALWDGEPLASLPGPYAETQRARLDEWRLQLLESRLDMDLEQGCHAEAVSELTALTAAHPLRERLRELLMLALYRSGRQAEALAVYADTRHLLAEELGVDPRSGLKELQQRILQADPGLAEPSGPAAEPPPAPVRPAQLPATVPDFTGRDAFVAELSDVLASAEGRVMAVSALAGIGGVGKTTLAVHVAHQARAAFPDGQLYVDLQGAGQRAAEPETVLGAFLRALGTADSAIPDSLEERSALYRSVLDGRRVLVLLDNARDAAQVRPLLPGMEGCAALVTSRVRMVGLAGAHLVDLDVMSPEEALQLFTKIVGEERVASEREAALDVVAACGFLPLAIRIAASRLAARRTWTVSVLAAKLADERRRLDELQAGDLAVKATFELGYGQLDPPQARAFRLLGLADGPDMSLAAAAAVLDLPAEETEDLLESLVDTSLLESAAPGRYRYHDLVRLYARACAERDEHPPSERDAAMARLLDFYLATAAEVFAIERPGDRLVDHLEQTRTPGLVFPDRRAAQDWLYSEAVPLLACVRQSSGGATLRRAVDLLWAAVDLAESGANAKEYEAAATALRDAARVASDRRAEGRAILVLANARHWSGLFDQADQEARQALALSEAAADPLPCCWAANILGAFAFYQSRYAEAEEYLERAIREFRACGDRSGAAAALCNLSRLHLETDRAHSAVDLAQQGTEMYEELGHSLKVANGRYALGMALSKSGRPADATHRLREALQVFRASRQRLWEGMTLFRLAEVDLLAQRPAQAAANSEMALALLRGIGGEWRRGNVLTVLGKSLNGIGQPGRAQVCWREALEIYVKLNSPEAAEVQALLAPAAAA
# Chain of UniProt Q99VT5 (whole entry, looked up): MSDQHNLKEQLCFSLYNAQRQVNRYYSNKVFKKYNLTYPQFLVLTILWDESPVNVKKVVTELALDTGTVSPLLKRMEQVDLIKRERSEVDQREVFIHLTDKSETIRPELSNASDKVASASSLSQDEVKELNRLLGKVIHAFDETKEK
Substance,tested on,test,test system,conditions,scale,endpoint,value
nonaarginine,PorA peptide pore,"peptide binding, planar bilayer single-channel recording",,"0.5 µM, pH 7.4, -35 mV, cis side, 150 mM KCl",,koff,2860 ± 290 s⁻¹
Polymyxin B,,,"mouse, serum",20 mg/kg,,NGAL level,46.2 ng/mL
"RNA 1 AACAAAACAAAAUAGCACCGUAAAGC / RNA 2 GCUUUACGGUGCUA (dsRNA; 14 bp duplex, 5' 12 nt overhang)","rhlE 1-384 (Pseudomonas aeruginosa, UniProt Q9I689)",fluorescence polarization,double-stranded RNA,,,Kd,119 nM
GATTACTTTTTTGCAATTTCATATGATCAATCCCCTTTATTTTAATATGTCATTAATTATACAATTAAATGGAAAATAGTGATAATTACAAAGAAAAAAATATTGTCAAATGTAGCAATGTTGTAATACAATATAGAAACTTTTTACGAATATTTAGCATGAATTGCAATTTGTCGTGGAAAAGAAGAATAACAGATTTAAGAATGACATGGAGAAAAAAGAGGTGAGCAT (dsDNA),"mgrA full length assumed (Staphylococcus aureus, UniProt Q99VT5)",EMSA,"double-stranded DNA, one strand shown",added: Montelukast absent,,Kd,10600 ± 3400 nM
GCAGACGAGGACGGATGTCATGGCCGCCCTCCGCAGCTGATGCGCGTCACCTTGAGCCTCCAGGCTGGTTACGAATCGTCACCGGTGCGGTCGACACTCGCCGACGGAAACTGCCGCCTGCCCGAGCGCTTGTTCCTTCAACCGCCTCGCACTCTCAACGACGGTCACTCGAAAGAGTTACGGGGCGGTGAGCCATCTTCGGCACTCTAC (dsDNA),"T1, AfsR 1-980 (Streptomyces avermitilis)",EMSA,"double-stranded DNA, one strand shown",,,binding,binds
UAUAUCACAGCC (ssRNA),HNRNPA1 UP1 1-196 (Homo sapiens),ITC,RNA,,,Kd,224 ± 13 nM
aspterric acid,,root length,Arabidopsis thaliana Col-0 seeds,"100 µg/mL, 7 days, dark",,inhibition,99.2%
GGGCGGGGGAGACAUAUAUCACAGCCUGUCUCGUGCCCGACCCCGCCC (RNA (Hepatitis C virus); hairpin; bulge; 12 nt apical loop),HNRNPA1 1-249 (Homo sapiens),ITC,folded RNA,,,Kd,286 ± 63 nM
GATTAGGGGGCGTATCAGCTAGGCACGGGGGCAGCTCTCATCGTGCAATCAGACCAAGCACACTCTAGGCTGGTAAAAGAAGAAGAAACATAGCTAATATTTGCCTTCGAAATTTTGAAAAGCAAGGAGCTGCGATTATGTCTTTTGATGCTTTTATGAAAGTTGATGGTGTTGAGGGCGAGTCTCTTGACGATGGTCACAGAG (dsDNA),LysR family transcriptional regulator 1-307,EMSA,"double-stranded DNA, one strand shown",,,binding,binds
CTCCCTGCATGATGTTCTTATTTCTCCTTTTTCCAAGAAAGCGTGTCTCGGGGATTTCGATTGCTTGAGCAAAAGCGGTCGCGGCCGTGCGGGCTGGGTTGATCAGCATCAGAGGTGATGGTCAGTGTTATGAATTTGCCCTGGTGGGCGGGGTAGTGTCAAGGTCGCTGACTTTGATGATTAACTGATGATCGTGGGATTCTGAGGTGGTGTTCGCGAGGGTGAAGGAGTTCCTTCCTGGAGACATCCGTGCCCCGGATGGCGGTCCACAATTCACGAGTGGGATGC (dsDNA),"T1, AfsR 1-980 (Streptomyces avermitilis)",EMSA,"double-stranded DNA, one strand shown",,,binding,binds
GGGGCAGCAGACGGCCAACACCCGCCACTCGCAGCGGGCAGTTTTTAATCAGCGCCAACAATTTGGAGAGCAGCCCGGTTGACCTCACAAAGTAAGCCACTCAATATGCTGTAAATCAATCAGCAGGGATGATTACCGACATGGCCTTTGACGCGTATTTGAAAATCGACGGAATTCCAGGTGAAGCTCTTGACGCTCAATTTAAGGACTGGATCGAAATGGAAAATTTCGACCTAGGAGCAAGCCAGTCCGCCTCTGTCACGG (dsDNA),LysR family transcriptional regulator 1-307,EMSA,"double-stranded DNA, one strand shown",,,binding,binds
insulin human,,measured: TGM5 mRNA,"uninfected mouse, brain","i.p., dose not given",baseline: PBS,fold change,1.17
CGTGAAACTGAACTCTCCCGAGGCCGCCGAGGTGCAGGCACTGCTGGCTCCGGCCGCCGCTGCCTGACACCGGGCAGGGCGTTCATCGTTCGTTTATCGCGGCCAGGCACTCTCTTGGTTGTCGATCCGTCGCGTCGGGGGGCAGACGGACCGCCGGTGAGGTCGCCGCACTCGCACCTTAGGGTGGGCGACTCGAGTGGCCCACCCGGCCACCCTCGGGGGAGTGGCCGGGTGGGCTCTCCACAGTTCAACGGCAATCACCATGGGGAGGCACCATCATGAGCGACATCACGAAGGAC (dsDNA),"bldD full length assumed (Streptomyces avermitilis, UniProt Q827R3)",EMSA,"double-stranded DNA, one strand shown",added: c-di-GMP 60 µM,,binding,binds

# For quick reference, copied from above:
Substance,tested on,test,test system,conditions,scale,endpoint,value
CTCCCTGCATGATGTTCTTATTTCTCCTTTTTCCAAGAAAGCGTGTCTCGGGGATTTCGATTGCTTGAGCAAAAGCGGTCGCGGCCGTGCGGGCTGGGTTGATCAGCATCAGAGGTGATGGTCAGTGTTATGAATTTGCCCTGGTGGGCGGGGTAGTGTCAAGGTCGCTGACTTTGATGATTAACTGATGATCGTGGGATTCTGAGGTGGTGTTCGCGAGGGTGAAGGAGTTCCTTCCTGGAGACATCCGTGCCCCGGATGGCGGTCCACAATTCACGAGTGGGATGC (dsDNA),"T1, AfsR 1-980 (Streptomyces avermitilis)",EMSA,"double-stranded DNA, one strand shown",,,binding,binds
